Experimental data pooled from the literature.
Each numbered part is a random draw from the data of one study; scales do not carry over between parts.
UniProt P68400, sequence (whole entry, looked up): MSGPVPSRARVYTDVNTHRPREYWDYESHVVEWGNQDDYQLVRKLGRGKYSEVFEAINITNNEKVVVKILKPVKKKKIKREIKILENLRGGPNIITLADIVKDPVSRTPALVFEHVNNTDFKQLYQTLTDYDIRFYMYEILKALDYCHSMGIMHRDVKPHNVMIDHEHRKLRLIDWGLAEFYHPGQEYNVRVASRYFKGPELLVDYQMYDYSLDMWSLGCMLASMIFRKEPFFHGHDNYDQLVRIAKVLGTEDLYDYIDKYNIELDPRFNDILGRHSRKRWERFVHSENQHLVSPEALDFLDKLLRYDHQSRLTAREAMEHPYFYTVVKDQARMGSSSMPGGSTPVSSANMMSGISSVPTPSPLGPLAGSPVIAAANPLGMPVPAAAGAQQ
UniProt Q9H4B4, sequence (whole entry, looked up): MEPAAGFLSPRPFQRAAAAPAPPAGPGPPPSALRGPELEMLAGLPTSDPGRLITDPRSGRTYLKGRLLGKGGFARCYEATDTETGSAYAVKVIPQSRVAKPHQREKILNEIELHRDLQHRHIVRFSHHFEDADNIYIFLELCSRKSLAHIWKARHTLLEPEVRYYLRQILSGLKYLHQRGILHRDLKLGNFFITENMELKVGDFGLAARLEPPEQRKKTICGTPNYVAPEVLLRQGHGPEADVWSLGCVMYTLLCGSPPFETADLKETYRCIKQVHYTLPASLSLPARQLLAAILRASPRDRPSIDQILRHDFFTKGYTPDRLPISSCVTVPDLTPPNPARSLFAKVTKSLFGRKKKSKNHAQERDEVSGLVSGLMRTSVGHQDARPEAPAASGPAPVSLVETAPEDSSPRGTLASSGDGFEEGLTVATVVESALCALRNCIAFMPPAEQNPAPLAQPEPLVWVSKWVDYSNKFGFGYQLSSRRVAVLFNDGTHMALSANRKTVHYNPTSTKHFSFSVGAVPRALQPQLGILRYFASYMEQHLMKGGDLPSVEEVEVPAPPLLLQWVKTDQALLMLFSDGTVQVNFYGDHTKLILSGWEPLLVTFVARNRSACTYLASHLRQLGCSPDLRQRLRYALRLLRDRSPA
UniProt Q5S007, sequence (whole entry, unmodified, looked up): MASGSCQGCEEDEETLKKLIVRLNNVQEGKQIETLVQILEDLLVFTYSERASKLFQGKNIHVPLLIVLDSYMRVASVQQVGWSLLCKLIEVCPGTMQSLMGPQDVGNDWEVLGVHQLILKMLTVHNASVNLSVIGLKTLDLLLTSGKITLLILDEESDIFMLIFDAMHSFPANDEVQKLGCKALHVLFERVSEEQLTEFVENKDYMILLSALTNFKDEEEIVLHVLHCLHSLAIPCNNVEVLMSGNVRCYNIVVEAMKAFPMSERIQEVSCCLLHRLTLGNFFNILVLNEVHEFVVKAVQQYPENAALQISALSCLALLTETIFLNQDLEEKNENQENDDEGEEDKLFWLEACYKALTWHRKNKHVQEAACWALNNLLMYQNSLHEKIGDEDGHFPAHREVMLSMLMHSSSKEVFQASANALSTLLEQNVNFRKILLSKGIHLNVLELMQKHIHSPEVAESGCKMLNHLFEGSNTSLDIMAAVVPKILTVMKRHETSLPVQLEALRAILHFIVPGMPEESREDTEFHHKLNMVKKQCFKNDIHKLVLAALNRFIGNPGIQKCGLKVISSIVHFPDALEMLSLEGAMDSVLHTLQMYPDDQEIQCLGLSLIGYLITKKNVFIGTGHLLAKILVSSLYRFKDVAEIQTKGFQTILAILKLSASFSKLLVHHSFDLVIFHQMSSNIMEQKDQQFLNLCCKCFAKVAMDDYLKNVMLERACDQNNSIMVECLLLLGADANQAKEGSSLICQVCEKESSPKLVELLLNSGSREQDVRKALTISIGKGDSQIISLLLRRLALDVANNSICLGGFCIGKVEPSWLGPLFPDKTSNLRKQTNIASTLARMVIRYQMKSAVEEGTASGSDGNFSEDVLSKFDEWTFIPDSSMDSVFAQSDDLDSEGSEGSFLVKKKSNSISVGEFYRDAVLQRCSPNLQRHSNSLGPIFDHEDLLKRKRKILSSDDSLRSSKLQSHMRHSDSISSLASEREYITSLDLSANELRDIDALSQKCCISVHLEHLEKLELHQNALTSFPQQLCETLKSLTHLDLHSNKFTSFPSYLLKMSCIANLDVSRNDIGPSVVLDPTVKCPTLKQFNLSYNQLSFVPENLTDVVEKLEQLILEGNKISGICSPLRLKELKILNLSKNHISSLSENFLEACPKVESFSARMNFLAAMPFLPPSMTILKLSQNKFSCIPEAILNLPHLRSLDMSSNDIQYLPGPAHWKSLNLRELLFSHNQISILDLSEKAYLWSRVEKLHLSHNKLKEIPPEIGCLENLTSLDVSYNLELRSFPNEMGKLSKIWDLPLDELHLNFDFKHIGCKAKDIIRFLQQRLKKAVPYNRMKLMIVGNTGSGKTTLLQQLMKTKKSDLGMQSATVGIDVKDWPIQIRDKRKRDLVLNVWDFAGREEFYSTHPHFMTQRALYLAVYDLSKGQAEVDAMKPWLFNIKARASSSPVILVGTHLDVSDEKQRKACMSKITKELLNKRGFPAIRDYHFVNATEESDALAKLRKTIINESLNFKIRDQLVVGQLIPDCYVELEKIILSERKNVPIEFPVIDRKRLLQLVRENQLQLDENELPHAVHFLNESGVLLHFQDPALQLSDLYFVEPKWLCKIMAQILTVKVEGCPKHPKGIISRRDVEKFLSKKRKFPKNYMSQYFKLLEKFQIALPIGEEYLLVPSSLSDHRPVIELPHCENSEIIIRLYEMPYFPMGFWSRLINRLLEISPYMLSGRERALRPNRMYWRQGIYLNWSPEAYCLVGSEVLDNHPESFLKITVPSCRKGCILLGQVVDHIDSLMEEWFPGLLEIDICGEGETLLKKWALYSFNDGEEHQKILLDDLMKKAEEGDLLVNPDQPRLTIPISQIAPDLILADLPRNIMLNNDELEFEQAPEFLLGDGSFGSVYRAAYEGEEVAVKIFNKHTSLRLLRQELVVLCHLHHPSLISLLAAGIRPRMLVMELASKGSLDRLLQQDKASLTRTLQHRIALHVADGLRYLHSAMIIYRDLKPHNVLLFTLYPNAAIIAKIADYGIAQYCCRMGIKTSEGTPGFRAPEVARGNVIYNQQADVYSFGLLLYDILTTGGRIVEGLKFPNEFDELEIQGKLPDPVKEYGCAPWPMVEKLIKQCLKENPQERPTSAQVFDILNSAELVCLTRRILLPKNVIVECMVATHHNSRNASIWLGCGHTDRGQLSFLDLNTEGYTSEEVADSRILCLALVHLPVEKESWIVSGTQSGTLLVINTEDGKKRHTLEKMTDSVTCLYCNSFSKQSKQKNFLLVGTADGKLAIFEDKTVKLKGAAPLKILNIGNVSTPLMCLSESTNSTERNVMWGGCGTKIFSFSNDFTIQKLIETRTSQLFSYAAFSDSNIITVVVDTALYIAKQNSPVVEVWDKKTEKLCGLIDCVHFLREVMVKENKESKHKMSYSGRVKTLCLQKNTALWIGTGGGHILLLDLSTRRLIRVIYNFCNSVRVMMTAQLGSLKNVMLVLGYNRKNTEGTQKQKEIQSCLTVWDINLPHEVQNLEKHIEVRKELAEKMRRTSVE
UniProt Q02750, sequence (whole entry, looked up): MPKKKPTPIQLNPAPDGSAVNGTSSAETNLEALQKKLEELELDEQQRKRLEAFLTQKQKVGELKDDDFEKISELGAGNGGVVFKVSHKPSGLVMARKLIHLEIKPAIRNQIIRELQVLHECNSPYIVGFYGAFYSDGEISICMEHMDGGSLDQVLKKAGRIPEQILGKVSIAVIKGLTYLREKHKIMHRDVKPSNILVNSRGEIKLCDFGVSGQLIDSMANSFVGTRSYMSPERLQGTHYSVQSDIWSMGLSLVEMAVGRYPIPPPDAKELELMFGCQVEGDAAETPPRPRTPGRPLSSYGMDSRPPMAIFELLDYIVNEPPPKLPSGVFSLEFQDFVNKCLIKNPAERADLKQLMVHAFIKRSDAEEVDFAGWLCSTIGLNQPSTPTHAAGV

Block 1
SMILES: CCS(=O)(=O)c1cc2cc(C[C@](O)(CC(C)(C)c3ccc(F)cc3C(N)=O)C(F)(F)F)[nH]c2cn1
Effect on: cell-free assay
Method: competition with immobilised ligand
Concentration: 1 µM
Quantity: remaining binding
HUNK (Homo sapiens, UniProt P57058): 100%
WNK3 (Homo sapiens, UniProt Q9BYP7): 100%
TESK1 (Homo sapiens, UniProt Q15569): 100%
Tyrosine-protein kinase ABL1, non-phosphorylated (ABL1, Homo sapiens, UniProt P00519, F317L): 100%
DAPK1 (Homo sapiens, UniProt P53355): 92%
CSNK1G3 (Homo sapiens, UniProt Q9Y6M4): 100%
PI4KB (Homo sapiens, UniProt Q9UBF8): 100%
STK16 (Homo sapiens, UniProt O75716): 100%
PIK3CD (Homo sapiens, UniProt O00329): 89%
CDK14 (Homo sapiens, UniProt O94921): 100%
PIK3C3 (Homo sapiens, UniProt Q8NEB9): 100%
SRPK3 (Homo sapiens, UniProt Q9UPE1): 100%
PIK3CB (Homo sapiens, UniProt P42338): 98%
PRKG1 (Homo sapiens, UniProt Q13976): 92%
CAMK1G (Homo sapiens, UniProt Q96NX5): 100%
MAP2K1 (Homo sapiens, UniProt Q02750): 91%
LRRK2 (Homo sapiens, UniProt Q5S007, G2019S): 100%

Block 2
Target: Calcium/calmodulin-dependent protein kinase type II subunit alpha (CAMK2A, Homo sapiens, UniProt Q9UQM7)
UniProt Q9UQM7, sequence (whole entry, looked up): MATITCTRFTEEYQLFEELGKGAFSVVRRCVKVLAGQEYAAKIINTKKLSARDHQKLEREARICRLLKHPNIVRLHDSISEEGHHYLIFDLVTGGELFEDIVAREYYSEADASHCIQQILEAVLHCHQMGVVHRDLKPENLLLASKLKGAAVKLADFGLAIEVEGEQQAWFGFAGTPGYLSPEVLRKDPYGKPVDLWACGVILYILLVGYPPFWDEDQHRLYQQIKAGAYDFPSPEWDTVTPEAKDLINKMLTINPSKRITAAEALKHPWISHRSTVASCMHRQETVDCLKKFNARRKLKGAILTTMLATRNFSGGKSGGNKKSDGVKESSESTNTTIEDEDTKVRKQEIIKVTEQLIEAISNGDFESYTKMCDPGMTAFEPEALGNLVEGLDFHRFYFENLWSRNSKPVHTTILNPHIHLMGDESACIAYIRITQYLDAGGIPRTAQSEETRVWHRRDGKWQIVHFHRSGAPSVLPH
Effect on: enzyme activity
Action: inhibitor
Concentration: 10 µM
Quantity: inhibition
CCCCc1nc2cc(/C=C/C(=O)NO)ccc2n1CCN(CC)CC: 18%
C[C@@H]1O[C@@H](O[C@H]2[C@H](O[C@H]3CC[C@@]4(C)[C@@H](CC[C@]5(C)[C@@H]4CC=C4[C@@H]6CC(C)(C)CC[C@]6(C(=O)O)CC[C@]45C)[C@]3(C)CO)OC[C@H](O[C@@H]3O[C@H](CO)[C@@H](O)[C@H](O)[C@H]3O)[C@@H]2O)[C@H](O)[C@H](O)[C@H]1O: -41%
Cc1onc(-c2ccccc2Cl)c1C(=O)N[C@@H]1C(=O)N2[C@@H]1SC(C)(C)[C@@H]2C(=O)O: -6%
O=C(O)/C=C/c1c[nH]c2ccccc12: -13%
OCCOc1ccc(/C(=C(/CCCl)c2ccccc2)c2ccccc2)cc1: 4%
CC(=O)O[C@]1(C(C)=O)CC[C@H]2[C@@H]3C[C@H](C)C4=CC(=O)C=C[C@]4(C)[C@@]3(F)[C@@H](O)C[C@@]21C: -7%
O=C1CCCC(=O)C1C(=O)c1ccc(C(F)(F)F)cc1[N+](=O)[O-]: -11%
Cc1[nH]c2ccccc2c1CCNCc1ccc(/C=C/C(=O)NO)cc1: 7%
Nc1ccn([C@H]2C[C@H](O)[C@@H](COP(=O)(O)O)O2)c(=O)n1: -17%
CNCC[C@H](Oc1cccc2ccccc12)c1cccs1: 7%

Block 3
SMILES: Cc1sc(C(=O)NC2COC2)cc1-n1cc(NC(=O)Nc2c(F)cccc2Cl)cn1
Effect on: enzyme activity
Concentration: 10 µM
Relative to: untreated control
Quantity: remaining activity
EPHB3 (Homo sapiens, UniProt P54753): 95.8%
PLK3 (Homo sapiens, UniProt Q9H4B4): 100%
HASPIN (Homo sapiens, UniProt Q8TF76): 92.3%
MAPKAPK2 (Homo sapiens, UniProt P49137): 89.9%
TNK1 (Homo sapiens, UniProt Q13470): 102%
CSNK2A1 (Homo sapiens, UniProt P68400): 96.3%
PRKCQ (Homo sapiens, UniProt Q04759): 96%
SRPK1 (Homo sapiens, UniProt Q96SB4): 96.8%
CAMK2G (Homo sapiens, UniProt Q13555): 99.2%
CSF1R (Homo sapiens, UniProt P07333): 101%
ITK (Homo sapiens, UniProt Q08881): 91.4%
STK17A (Homo sapiens, UniProt Q9UEE5): 108%
HIPK2 (Homo sapiens, UniProt Q9H2X6): 98.6%
SLK (Homo sapiens, UniProt Q9H2G2): 99.1%
DCLK1 (Homo sapiens, UniProt O15075): 66.1%

Block 4
Target: Serine/threonine-protein kinase 26 (STK26, Homo sapiens, UniProt Q9P289)
UniProt Q9P289, sequence (whole entry, looked up): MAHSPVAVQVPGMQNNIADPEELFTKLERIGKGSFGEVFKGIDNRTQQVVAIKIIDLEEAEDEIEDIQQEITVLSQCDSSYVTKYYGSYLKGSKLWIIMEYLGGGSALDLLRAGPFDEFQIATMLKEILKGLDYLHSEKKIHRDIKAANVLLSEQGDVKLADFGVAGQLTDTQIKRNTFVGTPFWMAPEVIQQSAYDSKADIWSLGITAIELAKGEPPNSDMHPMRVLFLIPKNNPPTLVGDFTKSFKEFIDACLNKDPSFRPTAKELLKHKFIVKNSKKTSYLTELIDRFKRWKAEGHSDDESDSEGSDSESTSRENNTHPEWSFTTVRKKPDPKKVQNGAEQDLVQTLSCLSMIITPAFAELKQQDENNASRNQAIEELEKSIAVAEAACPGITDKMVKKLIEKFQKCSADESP
Effect on: enzyme activity
Action: inhibitor
Concentration: 0.5 µM
Relative to: control
Quantity: remaining activity
O=C1Nc2ccc(Br)cc2/C1=C/c1cc2c([nH]1)CCCC2: 87.9%
COc1ccc2c(c1)c(C1=C(c3c[nH]c4ccccc34)C(=O)NC1=O)cn2CCCN(C)C: 40.4%
CN1CCN(c2ccc3nc(-c4c(N)c5c(F)cccc5[nH]c4=O)[nH]c3c2)CC1: 105%
c1ccc(-c2n[nH]c3c2oc2ccccc23)cc1: 90.6%
O=C1Cc2c([nH]c3ccc(Br)cc23)-c2ccccc2N1: 108%
c1ccc2c(-c3ccncc3)c[nH]c2c1: 104%
Cc1ccc(S(=O)(=O)/C=C/C#N)cc1: 90.7%
CCCNC(=O)Nc1ccc(Oc2ncnc3cc(OC)c(OC)cc23)cc1Cl: 86.9%
Cc1cc(Nc2cc(N3CCN(C)CC3)nc(Sc3ccc(NC(=O)C4CC4)cc3)n2)[nH]n1: 130%
O=C(c1cc2cc(O)ccc2[nH]1)c1cc2cc(O)ccc2[nH]1: 101%
O=C1NC(=O)c2c1c1c3ccccc3[nH]c1n1cncc21: 69.4%
CN(C)S(=O)(=O)c1ccc2c(c1)/C(=C/c1cc3c([nH]1)CCCC3)C(=O)N2: 45.6%
O=c1cc(N2CCOCC2)oc2c(-c3ccccc3)cccc12: 97.2%
O=C1NC(=O)c2c1c1c3ccccc3[nH]c1c1[nH]c3cc(Br)ccc3c21: 80.5%
CCCCc1c(-c2ccc(OC)cc2)[nH]c2nccnc12: 75.8%
COc1cccc(-c2cc(=O)c3ccccc3o2)c1N: 110%
O=Nc1c(-c2c(O)[nH]c3cc(Br)ccc23)[nH]c2ccccc12: 122%
COc1ccc(COc2ccc(Cc3cnc(N)nc3N)cc2OC)cc1: 95.5%
N#Cc1cnc2cnc(NCc3cccnc3)cc2c1Nc1ccc(F)c(Cl)c1: 95%

Some of these lines once more (block 3):
SLK (Homo sapiens, UniProt Q9H2G2): 99.1%
HASPIN (Homo sapiens, UniProt Q8TF76): 92.3%
STK17A (Homo sapiens, UniProt Q9UEE5): 108%
PLK3 (Homo sapiens, UniProt Q9H4B4): 100%
PRKCQ (Homo sapiens, UniProt Q04759): 96%
DCLK1 (Homo sapiens, UniProt O15075): 66.1%
MAPKAPK2 (Homo sapiens, UniProt P49137): 89.9%
CSF1R (Homo sapiens, UniProt P07333): 101%
SRPK1 (Homo sapiens, UniProt Q96SB4): 96.8%
